# Experimental data collected from several papers.
# Each line is one published result; not all experiments were run side by side. Numbers after ± are the reported error.
# Cell line: T47D
SMILES,assay,conditions,IC50
CCCCCCCCCCn1c(-c2cccnc2)nc(-c2ccc(C)cc2)c1-c1ccc(C)cc1,"cell growth or viability, SRB",48 h,90.6 µM
O=C1/C(=C/c2ccc(B(O)O)cc2)CC/C1=C\c1ccc(B(O)O)cc1,"cell growth or viability, MTT",24 h,170 µM
Cc1cc(C#N)cc(C)c1Oc1cc(Nc2ccc(C#N)cc2)nc2cnccc12,,48 h,> 128 µM
COc1ccc(C2=NN(C3=NC(=O)/C(=C/c4ccc(Cl)cc4)S3)C(c3ccc(F)cc3)C2)cc1 (centres unmarked),"cell growth or viability, MTT",,55.1 µM
COCC[n+]1cn(C2CCCC2)c2ccccc21,"cell growth or viability, MTT",48 h,33 µM
CCCCCC(C)n1c(-c2cccnc2)nc(-c2ccc(C)cc2)c1-c1ccc(C)cc1 (centres unmarked),"cell growth or viability, SRB",48 h,> 100 µM
CC(C)(C)c1ccc(C[n+]2cn(C3CCCC3)c3ccccc32)cc1,"cell growth or viability, MTT",48 h,30 µM
COc1ccc(C2=NN(C3=NC(=O)/C(=C/c4ccccc4)S3)C(c3ccc(F)cc3)C2)cc1 (centres unmarked),"cell growth or viability, MTT",,77.1 µM
CCCCCCCCC=CCCCCCCCCn1c(-c2cccnc2)nc(-c2ccc(C)cc2)c1-c1ccc(C)cc1,"cell growth or viability, SRB",48 h,> 100 µM
O=C1N=C(N2N=C(c3cccs3)CC2c2ccc(F)cc2)SC1=Cc1ccc(O)cc1 (centres unmarked),,,1.66 ± 0.1 µM
CCCCn1c(-c2cccnc2)nc(-c2ccc(C)cc2)c1-c1ccc(C)cc1,"cell growth or viability, SRB",48 h,> 100 µM
Cc1cc(/C=C/C#N)cc(C)c1Oc1cc(Nc2ccc(C#N)cn2)nc2ccncc12,,48 h,> 120 µM
O=c1oc2cc(O)cc3c2c2c(cc(O)cc12)CC3,"cell growth or viability, MTT",48 h,69 µM
COc1ccc(C2=NN(C3=NC(=O)/C(=C/c4ccc(N(C)C)cc4)S3)C(c3ccc(F)cc3)C2)cc1 (centres unmarked),"cell growth or viability, MTT",,> 100 µM
CCCCCCCCCCCCCCn1c(-c2cccnc2)nc(-c2ccc(C)cc2)c1-c1ccc(C)cc1,"cell growth or viability, SRB",48 h,> 100 µM
Cc1ccc(C(C)C)cc1.Cc1ncc(CO)c(C=NNC2=Nc3ccccc3-c3[nH]c4ccc(Br)cc4c3C2)c1O.[Cl-].[Cl][Ru+],"cell growth or viability, MTT",96 h,5.8 µM
CCCn1c(-c2cccnc2)nc(-c2ccc(C)cc2)c1-c1ccc(C)cc1,"cell growth or viability, SRB",48 h,> 100 µM
Cc1cc(C=O)cc(C)c1Oc1cc(Nc2ccc(C#N)cn2)nc2cnccc12,,48 h,> 126 µM
COc1ccc(/C=C2\SC(N3N=C(c4ccc(C)cc4)CC3c3ccc(F)cc3)=NC2=O)cc1 (centres unmarked),"cell growth or viability, MTT",,9.3 µM
CCCCn1cc(C(=O)O)c(=O)c2cc(F)c(Nc3ccc(OC)cc3)c(N)c21,"cell growth or viability, SRB",72 h,2.69 µg/mL

# For quick reference, copied from above:
SMILES,assay,conditions,IC50
COc1ccc(C2=NN(C3=NC(=O)/C(=C/c4ccc(N(C)C)cc4)S3)C(c3ccc(F)cc3)C2)cc1 (centres unmarked),"cell growth or viability, MTT",,> 100 µM
COCC[n+]1cn(C2CCCC2)c2ccccc21,"cell growth or viability, MTT",48 h,33 µM
CCCCCCCCCCCCCCn1c(-c2cccnc2)nc(-c2ccc(C)cc2)c1-c1ccc(C)cc1,"cell growth or viability, SRB",48 h,> 100 µM
